Published values collected from several papers.
Lines come from different studies, so protocols differ.

CC/C=C\C/C=C\C/C=C\C/C=C\C/C=C\C/C=C\CCC(=O)Nc1ccn(C2OC(CO)C(O)C2(F)F)c(=O)n1 (stereo not drawn) — CC50 (HOP-62; NCI60 screen): 35.2 µM
C[C@H]1C(OCCCCCCCC[P+](c2ccccc2)(c2ccccc2)c2ccccc2)O[C@@H]2O[C@@]3(C)CCC4[C@H](C)CCC1[C@]42OO3 (stereo partly drawn) — cell proliferation (T24; EdU; concentration not given, dose-dependent; relative to: control): decreased
CCOP(=O)(OCC)OCCCCOC(=O)CC1=C(C)C(=Cc2ccc([S+](C)[O-])cc2)c2ccc(F)cc21 (stereo not drawn) — inhibition (H23; cell proliferation, BrdU incorporation; IC50, 24 h): 49%
CC(=O)NC1C(OC2OC(CC(O)C3OC(n4ccc(=O)[nH]c4=O)C(O)C3O)C(O)C(O)C2NC(=O)COCc2ccc(N3CCC(Oc4ccc(OC(F)(F)F)cc4)CC3)cc2)OC(CO)C(O)C1O (stereo not drawn) — cytostatic concentration (MCF7, SK-BR-3, MDA-MB-231; cell growth): 1.25 to 4.5 µM
COC1CC(=O)N(C)C=CCCCC(=O)N(C)C(C(C)C)C(=O)N(C)C(CC(C)C)C(=O)OC(C(C)C)CC(C)C1 (stereo not drawn) — pathway activation z-score (HCT-116; RNA sequencing, measured: G-protein coupled receptor signalling; 20 µM, 12 h; direction not given): 2.11
N[C@@H](Cc1ccccc1)C(=O)N[C@@H](Cc1ccccc1)C(=O)N[C@@H](CCCCNC(=O)CCC(=O)O)C(=O)N[C@@H](CCCCNC(=O)CCCC[C@@H]1SC[C@@H]2NC(=O)N[C@@H]21)C(=O)O — viability (4T1; CCK-8; 20 µM, 4 h then 24 h, dark; relative to: untreated): > 80%
CCc1ccc(C(=O)N[C@@H](CO)C(=O)N[C@H](C(=O)N2CCC[C@H]2C(=O)N[C@@H](CC(N)=O)C(=O)NCC(=O)N[C@@H](CC(C)C)C(=O)O)[C@@H](C)OP(=O)(O)O)cc1 — aberrant prometaphase/metaphase cells (HeLa-H2B-GFP, QQ transfected; 30 µM): 48%
CC[C@H](C)[C@H](NC(=O)[C@@H](NC(=O)[C@@H](NC(=O)[C@@H](N)C(C)C)C(C)C)[C@@H](C)CC)C(N)=O — viability (PC-12; Aβ42-induced neurotoxicity, inhibitor, MTT; concentration not given, 6 h, 37 °C, peptide to Aβ42 1:2, added: Aβ42 2 µM; relative to: untreated cells): 97%
CC[C@H]1OC(=O)[C@H](C(C)C)NC(=O)[C@H](C)OC(=O)[C@@H](C(C)C)NC(=O)[C@@H](C(C)C)OC(=O)[C@H](C(C)C)NC(=O)[C@H](C)OC(=O)[C@@H](C(C)C)NC(=O)[C@@H](C(C)C)OC(=O)[C@H](C(C)C)NC(=O)[C@H](C)OC(=O)[C@@H](C(C)C)NC1=O — G0/G1 cell fraction increase (U-251; PI flow cytometry; 0.8 µM, 12 h; relative to: untreated control): 17.9%
CN1C(=O)C2(Cc3ccc(CC45SSC(CO)(C(=O)N4C)N(C)C5=O)cc3)SSC1(CO)C(=O)N2C (racemic) — mRNA level change (MCF7; microarray, measured: TGFB3; 600 nM, unit not given, added: deferoxamine 300 µM; relative to: deferoxamine alone): -1.8
CC(C)c1cnn2c(NCc3ccccc3)cc(N[C@@H](CO)[C@H](O)CO)nc12 — resistance factor (MCF7/MX (ABCG2-overexpressing); cell growth, sulforhodamine B; 72 h; relative to: MCF7/MX over parental MCF7): 15 fold
CC[C@H](C)[C@H](NC(=O)[C@@H](NC(=O)[C@H](CC(N)=O)NC(=O)[C@H](CCC(N)=O)NC(=O)[C@@H]1CCCN1C(=O)[C@@H](NC(=O)[C@H](Cc1ccc(O)cc1)NC(=O)CNC(=O)[C@H](Cc1ccc(O)cc1)NC(=O)[C@H](Cc1c[nH]c2ccccc12)NC(=O)[C@H](Cc1c[nH]cn1)NC(=O)[C@H](Cc1ccc(O)cc1)NC(=O)CNC(=O)CCCC1=C2C(C)=CC(C)=[N+]2[B-](F)(F)n2c(C)cc(C)c21)[C@@H](C)O)C(C)C)C(N)=O — cellular uptake (HEp-2; 10 µM, 24 h; relative to: BODIPY 1): ~5 fold

A few entries again:
CN1C(=O)C2(Cc3ccc(CC45SSC(CO)(C(=O)N4C)N(C)C5=O)cc3)SSC1(CO)C(=O)N2C (racemic) — mRNA level change (MCF7; microarray, measured: TGFB3; 600 nM, unit not given, added: deferoxamine 300 µM; relative to: deferoxamine alone): -1.8
